Published values from different studies.
Each line is one published result; not all experiments were run side by side.
CDC42BPG: Serine/threonine-protein kinase MRCK gamma (CDC42BPG, Homo sapiens, UniProt Q6DT37)
Sequence of UniProt Q6DT37 (whole entry, looked up): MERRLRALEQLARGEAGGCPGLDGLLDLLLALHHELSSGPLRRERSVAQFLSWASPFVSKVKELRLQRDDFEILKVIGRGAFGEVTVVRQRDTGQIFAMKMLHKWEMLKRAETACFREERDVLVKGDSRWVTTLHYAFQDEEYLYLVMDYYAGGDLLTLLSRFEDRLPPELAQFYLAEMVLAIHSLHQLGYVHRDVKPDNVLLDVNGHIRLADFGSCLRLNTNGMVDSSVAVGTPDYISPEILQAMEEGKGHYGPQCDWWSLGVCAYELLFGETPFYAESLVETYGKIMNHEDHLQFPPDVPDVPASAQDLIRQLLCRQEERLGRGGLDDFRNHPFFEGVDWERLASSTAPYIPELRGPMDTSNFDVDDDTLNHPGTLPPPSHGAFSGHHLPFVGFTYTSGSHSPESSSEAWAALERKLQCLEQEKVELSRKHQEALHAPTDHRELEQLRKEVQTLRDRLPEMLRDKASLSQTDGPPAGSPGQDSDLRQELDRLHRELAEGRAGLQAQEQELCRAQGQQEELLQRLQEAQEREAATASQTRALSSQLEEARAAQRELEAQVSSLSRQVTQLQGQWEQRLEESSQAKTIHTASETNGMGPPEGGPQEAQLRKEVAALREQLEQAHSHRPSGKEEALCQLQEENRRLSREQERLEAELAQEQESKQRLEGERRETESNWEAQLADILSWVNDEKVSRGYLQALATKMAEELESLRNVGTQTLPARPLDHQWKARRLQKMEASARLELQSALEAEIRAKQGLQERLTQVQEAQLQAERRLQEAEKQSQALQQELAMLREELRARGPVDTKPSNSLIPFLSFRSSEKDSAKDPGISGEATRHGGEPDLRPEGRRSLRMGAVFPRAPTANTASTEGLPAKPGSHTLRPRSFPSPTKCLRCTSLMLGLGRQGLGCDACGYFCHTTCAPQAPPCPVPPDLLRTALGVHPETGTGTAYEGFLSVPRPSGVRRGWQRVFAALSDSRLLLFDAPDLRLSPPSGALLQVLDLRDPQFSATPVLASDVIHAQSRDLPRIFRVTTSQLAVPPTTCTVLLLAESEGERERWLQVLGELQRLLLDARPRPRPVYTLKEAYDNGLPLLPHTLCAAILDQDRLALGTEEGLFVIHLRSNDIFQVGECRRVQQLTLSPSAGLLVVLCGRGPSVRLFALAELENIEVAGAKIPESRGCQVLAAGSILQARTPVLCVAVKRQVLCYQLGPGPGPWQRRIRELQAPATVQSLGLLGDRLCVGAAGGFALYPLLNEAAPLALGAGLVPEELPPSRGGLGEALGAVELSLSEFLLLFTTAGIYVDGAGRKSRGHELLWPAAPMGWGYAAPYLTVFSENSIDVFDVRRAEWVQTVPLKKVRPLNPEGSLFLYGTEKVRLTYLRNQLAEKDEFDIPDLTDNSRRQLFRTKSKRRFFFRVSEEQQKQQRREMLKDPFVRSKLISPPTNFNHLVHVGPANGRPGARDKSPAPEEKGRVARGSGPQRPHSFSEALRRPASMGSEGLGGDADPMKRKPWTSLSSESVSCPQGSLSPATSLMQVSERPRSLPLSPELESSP
CDPK1: Calcium-dependent protein kinase 1 (CDPK1, Plasmodium falciparum, UniProt P62344)
Sequence of UniProt P62344 (whole entry, looked up): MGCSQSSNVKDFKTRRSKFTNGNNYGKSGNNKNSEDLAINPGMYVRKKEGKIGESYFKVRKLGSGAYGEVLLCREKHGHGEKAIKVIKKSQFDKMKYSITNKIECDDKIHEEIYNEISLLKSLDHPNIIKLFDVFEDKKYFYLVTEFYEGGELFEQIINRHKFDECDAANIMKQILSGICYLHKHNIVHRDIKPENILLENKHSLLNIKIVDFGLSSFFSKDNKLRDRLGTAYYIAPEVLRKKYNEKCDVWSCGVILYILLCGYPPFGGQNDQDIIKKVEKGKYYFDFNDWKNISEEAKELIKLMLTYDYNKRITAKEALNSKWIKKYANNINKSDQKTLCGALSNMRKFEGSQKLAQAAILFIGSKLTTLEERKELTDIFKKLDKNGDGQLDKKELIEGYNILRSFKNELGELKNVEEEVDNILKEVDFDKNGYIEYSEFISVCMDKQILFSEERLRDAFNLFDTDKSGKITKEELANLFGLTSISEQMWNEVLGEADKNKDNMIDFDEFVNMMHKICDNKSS
Sequence of UniProt P42336 (whole entry, looked up): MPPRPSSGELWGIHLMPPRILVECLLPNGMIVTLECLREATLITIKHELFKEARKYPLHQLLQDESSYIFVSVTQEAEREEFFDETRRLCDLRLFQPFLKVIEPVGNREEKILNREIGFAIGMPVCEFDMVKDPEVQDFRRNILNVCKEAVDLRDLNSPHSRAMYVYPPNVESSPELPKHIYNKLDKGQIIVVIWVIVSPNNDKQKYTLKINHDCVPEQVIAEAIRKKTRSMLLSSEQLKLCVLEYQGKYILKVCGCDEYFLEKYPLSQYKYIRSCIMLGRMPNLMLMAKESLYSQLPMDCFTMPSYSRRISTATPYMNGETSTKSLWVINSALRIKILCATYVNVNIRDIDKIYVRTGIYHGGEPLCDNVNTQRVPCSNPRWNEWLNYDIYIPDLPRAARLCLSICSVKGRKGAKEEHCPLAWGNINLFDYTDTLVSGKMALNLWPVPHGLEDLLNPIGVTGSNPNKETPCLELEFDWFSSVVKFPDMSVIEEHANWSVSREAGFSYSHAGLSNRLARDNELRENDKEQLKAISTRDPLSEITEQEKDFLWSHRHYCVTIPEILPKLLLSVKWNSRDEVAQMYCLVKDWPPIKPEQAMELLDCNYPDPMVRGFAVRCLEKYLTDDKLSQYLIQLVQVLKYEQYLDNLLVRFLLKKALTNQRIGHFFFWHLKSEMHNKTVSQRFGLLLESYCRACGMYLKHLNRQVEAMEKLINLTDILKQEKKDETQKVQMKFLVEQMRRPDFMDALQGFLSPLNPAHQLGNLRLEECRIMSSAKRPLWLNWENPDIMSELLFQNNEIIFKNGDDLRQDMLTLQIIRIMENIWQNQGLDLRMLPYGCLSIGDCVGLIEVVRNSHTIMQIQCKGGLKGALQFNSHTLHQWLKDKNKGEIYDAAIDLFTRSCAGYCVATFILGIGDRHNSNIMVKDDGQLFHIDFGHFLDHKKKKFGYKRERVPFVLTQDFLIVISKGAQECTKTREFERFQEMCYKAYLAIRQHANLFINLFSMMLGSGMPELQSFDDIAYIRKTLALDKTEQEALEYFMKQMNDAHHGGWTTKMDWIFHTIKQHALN
Sequence of UniProt Q9BQI3 (whole entry, looked up): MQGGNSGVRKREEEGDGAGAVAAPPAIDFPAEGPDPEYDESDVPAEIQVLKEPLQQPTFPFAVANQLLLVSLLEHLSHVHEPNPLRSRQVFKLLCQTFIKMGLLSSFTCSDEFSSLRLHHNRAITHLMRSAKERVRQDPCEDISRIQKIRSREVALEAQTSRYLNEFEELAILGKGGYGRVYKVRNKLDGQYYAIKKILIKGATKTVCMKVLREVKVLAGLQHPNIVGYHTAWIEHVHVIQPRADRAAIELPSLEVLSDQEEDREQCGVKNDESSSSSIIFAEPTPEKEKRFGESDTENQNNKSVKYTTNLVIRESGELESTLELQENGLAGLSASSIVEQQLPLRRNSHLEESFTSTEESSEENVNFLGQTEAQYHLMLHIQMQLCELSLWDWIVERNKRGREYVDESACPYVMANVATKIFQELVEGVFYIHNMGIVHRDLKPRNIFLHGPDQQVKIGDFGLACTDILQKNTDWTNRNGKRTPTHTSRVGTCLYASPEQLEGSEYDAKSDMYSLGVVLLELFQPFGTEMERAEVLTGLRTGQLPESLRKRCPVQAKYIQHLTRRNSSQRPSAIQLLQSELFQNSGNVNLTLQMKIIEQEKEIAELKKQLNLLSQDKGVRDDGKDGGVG
Sequence of UniProt Q12852 (whole entry, looked up): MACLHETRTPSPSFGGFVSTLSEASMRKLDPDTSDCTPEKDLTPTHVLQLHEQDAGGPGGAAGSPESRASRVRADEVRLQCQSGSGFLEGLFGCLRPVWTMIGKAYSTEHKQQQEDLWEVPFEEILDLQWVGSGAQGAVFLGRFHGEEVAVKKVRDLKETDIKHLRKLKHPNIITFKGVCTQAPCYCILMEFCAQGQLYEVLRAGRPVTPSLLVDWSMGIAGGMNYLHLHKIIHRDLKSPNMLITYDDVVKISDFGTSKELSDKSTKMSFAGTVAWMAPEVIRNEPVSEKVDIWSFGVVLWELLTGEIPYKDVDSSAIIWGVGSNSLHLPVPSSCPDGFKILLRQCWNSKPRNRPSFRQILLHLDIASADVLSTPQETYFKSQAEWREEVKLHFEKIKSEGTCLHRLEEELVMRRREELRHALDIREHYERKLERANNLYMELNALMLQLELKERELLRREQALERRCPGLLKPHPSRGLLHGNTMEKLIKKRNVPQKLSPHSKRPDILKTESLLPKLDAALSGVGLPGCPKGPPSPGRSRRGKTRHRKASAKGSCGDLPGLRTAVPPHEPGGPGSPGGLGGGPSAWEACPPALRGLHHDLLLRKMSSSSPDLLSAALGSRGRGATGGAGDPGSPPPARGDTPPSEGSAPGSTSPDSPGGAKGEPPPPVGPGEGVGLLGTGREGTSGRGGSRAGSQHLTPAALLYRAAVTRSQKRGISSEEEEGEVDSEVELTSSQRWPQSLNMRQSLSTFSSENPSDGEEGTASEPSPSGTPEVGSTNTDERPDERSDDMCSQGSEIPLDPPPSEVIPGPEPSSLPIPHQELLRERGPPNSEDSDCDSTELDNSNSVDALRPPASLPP
Sequence of UniProt Q13882 (whole entry, looked up): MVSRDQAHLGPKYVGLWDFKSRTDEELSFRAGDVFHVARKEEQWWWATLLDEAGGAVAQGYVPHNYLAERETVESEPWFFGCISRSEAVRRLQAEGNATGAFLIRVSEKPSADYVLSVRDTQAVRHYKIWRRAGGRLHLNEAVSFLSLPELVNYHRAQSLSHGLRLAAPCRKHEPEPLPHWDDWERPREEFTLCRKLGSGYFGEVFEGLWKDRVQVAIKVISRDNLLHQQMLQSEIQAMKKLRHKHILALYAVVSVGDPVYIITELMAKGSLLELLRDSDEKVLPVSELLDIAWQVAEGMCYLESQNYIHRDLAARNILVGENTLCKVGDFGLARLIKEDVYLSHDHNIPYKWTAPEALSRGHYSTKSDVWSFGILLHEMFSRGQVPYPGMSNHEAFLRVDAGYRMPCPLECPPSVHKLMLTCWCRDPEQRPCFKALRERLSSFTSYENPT

target | effect on | technique | concentration | remaining binding | SMILES
CDC42BPG | binding | – | 1 µM | 100% | CN(C)c1nccc(-c2cnn3ncccc23)n1
MAP3K12 (Homo sapiens, UniProt Q12852) | binding | competition with immobilised ligand | 0.5 µM | 100% | CCCCC(=O)Nc1ccc(-c2ccc3ncn(CCC)c(=O)c3c2)cn1
BMP2K (Homo sapiens, UniProt Q9NSY1) | binding | competition with immobilised ligand | 1 µM | 75% | Cc1cc(S(=O)(=O)N[C@H]2CC[C@H](CN3CCN(c4ccc(C5CCC(=O)NC5=O)cc4F)CC3)CC2)ccc1Nc1ncc(C(F)(F)F)c(N2CCC[C@](C)(O)C2)n1 (stereo partly shown)
PTK6 (Homo sapiens, UniProt Q13882) | binding | – | 1 µM | 101% | COc1ccc2oc(-c3ccc4nc(N)oc4c3)c/c(=N\c3ccccc3NC(=O)CCN)c2c1
PIK3CA (Homo sapiens, UniProt P42336) | binding | competition with immobilised ligand | 1 µM | 100% | Cc1cc([C@@H](C)Nc2ccccc2C(=O)O)c2nc(N3CCC(F)(F)CC3)c(C#N)c(=O)n2c1
CDC42BPG | binding | – | 1 µM | 100% | N[C@H]1CCN(c2nccc(-c3cnn4ncccc34)n2)C1
Bromodomain adjacent to zinc finger domain protein 2B, bromodomain (BAZ2B, Homo sapiens, UniProt Q9UIF8) | binding | competition with immobilised ligand | 1 µM | 90% | NS(=O)(=O)c1ccc(Nc2nc(-c3ccc(F)cc3)c3ccccc3n2)cc1
EPHB3 (Homo sapiens, UniProt P54753) | binding | – | 0.1 µM | 100% | C1=C/COCc2cc(ccc2OCCN2CCCC2)Nc2nccc(n2)-c2cccc(c2)COC/1
EIF2AK1 (Homo sapiens, UniProt Q9BQI3) | binding | competition with immobilised ligand | 1 µM | 81% | C=CC(=O)N1CCC(COCC(=O)N2CCN(c3nc(-c4cnc(N)nc4C(F)F)nc(N4CCOC[C@@H]4C)n3)CC2)CC1
ERBB3 (Homo sapiens, UniProt P21860) | binding | – | 1 µM | 100% | CN(C)c1nccc(-c2cnc3ncccn23)n1
MYLK (Homo sapiens, UniProt Q15746) | cell-free assay | competition with immobilised ligand | 5 µM | 40% | FC(F)(F)Oc1cccc(-c2cnc3ccc(-c4ccncc4)nn23)c1
CDPK1 | binding | – | 1 µM | 98% | CN(CCCC(F)(F)F)c1nccc(-c2cnn3ncccc23)n1
CDPK1 | binding | competition with immobilised ligand | 0.1 µM | 8.9% | C[C@@H](c1ccc(-n2cnc3c(N)ncnc32)cc1)N1CCc2nn(C)c(Cc3ccccc3)c2C1=O

For quick reference, copied from above:
target | effect on | technique | concentration | remaining binding | SMILES
MAP3K12 (Homo sapiens, UniProt Q12852) | binding | competition with immobilised ligand | 0.5 µM | 100% | CCCCC(=O)Nc1ccc(-c2ccc3ncn(CCC)c(=O)c3c2)cn1
BMP2K (Homo sapiens, UniProt Q9NSY1) | binding | competition with immobilised ligand | 1 µM | 75% | Cc1cc(S(=O)(=O)N[C@H]2CC[C@H](CN3CCN(c4ccc(C5CCC(=O)NC5=O)cc4F)CC3)CC2)ccc1Nc1ncc(C(F)(F)F)c(N2CCC[C@](C)(O)C2)n1 (stereo partly shown)
